# Experimental data of several laboratories.
# Lines come from different studies, so protocols differ. “And” joins repeats or separate records; there may be more than shown. ± marks the error that the study gave.
# Cell line: MDA-MB-231
Compound,assay,conditions,IC50
CCc1c(C)c2ccc(OCC(=O)NNC(=S)Nc3ccccc3)c(C)c2oc1=O,MTT,,37.9 µg/mL
NC(=S)N/N=C1\C(=O)N(CCn2ncc3c(=O)[nH]cnc32)c2ccc(Cl)cc21,"cell growth, SRB",72 h,22.6 ± 4.1 µg/mL
CCOc1ccc2c(C)c(CC)c(=O)oc2c1C,MTT,,189 µg/mL
C[C@@H]1CC[C@@H]([C@](O)(CNCc2ccccc2)COCc2ccc(F)cc2)[C@H](OCc2ccc(F)cc2)C1,"cell growth, inhibitor, MTT",72 h,1.46 µM
N#Cc1cc(F)c(-n2c(=O)cc(C(F)(F)F)[nH]c2=O)cc1Oc1ccccc1,,,~30 µM
Cc1c(Cc2ccccc2)c(=O)oc2c(C)c(OCC(=O)NN=Cc3ccco3)ccc12,MTT,,5.07 µg/mL
COc1cccc(CNC[C@@](C)(O)[C@@H]2CC[C@@H](C)C[C@H]2OCc2ccccc2)c1,"cell growth, inhibitor, MTT",72 h,11.7 µM
Cc1c(Cc2ccccc2)c(=O)oc2c(C)c(OCC(=O)NN=Cc3ccc([N+](=O)[O-])cc3)ccc12,MTT,,11.8 µg/mL
CNc1nc2c(c(N3CC(=O)Nc4cc(OC)ccc43)n1)CCC2,"cell growth, MTS",,0.001 to 0.004 µM
CNC(=O)c1cc(Oc2ccc(NC(=O)Nc3ccc(Cl)c(C(F)(F)F)c3)cc2)ccn1,"cell growth, SRB",72 h,37.4 ± 8.14 µg/mL
COc1ccc(COC[C@@](O)(CNCc2ccccc2)[C@@H]2CC[C@@H](C)C[C@H]2OCc2ccc(OC)cc2)cc1,"cell growth, inhibitor, MTT",72 h,2.19 µM
CC(=O)O[C@@]12CO[C@@H]1C[C@H](O)[C@@]1(C)C(=O)[C@H](O)C3=C(C)[C@@H](OC(=O)[C@H](O)[C@@H](NC(=O)OC(C)(C)C)c4ccccc4)C[C@@](O)([C@@H](OC(=O)c4ccccc4)[C@H]21)C3(C)C,"cytotoxicity, CCK-8",72 h,0.136 µM
O=C1C(=O)N(CCn2ncc3c(=O)[nH]cnc32)c2ccc(F)cc21,"cell growth, SRB",72 h,15.4 ± 1.81 µg/mL
CC[C@@]1([C@@H]2O[C@@H]([C@H]3O[C@@](O)(CO)[C@H](C)C[C@@H]3C)C[C@@H]2C)CC[C@H]([C@]2(C)CC[C@]3(C[C@H](O)[C@@H](C)[C@@H]([C@@H](C)[C@@H](OC)[C@H](C)C(=O)O)O3)O2)O1,"cell viability, MTT","72 h, 3D mini-ring",0.65 ± 0.459 µM
Cc1ccccc1Oc1cc(-n2c(=O)cc(C(F)(F)F)[nH]c2=O)c(C)cc1C#N,,,~30 µM
CC(=O)[C@@H]1CCCN1C(=O)[C@@H]1CCCN1C(=O)OC(C)(C)C,"cell growth, sulforhodamine B",,1.95 µM and 2.18 µM and 2.34 µM
CCc1c(C)c2ccc(OCc3nnc(S)n3N)c(C)c2oc1=O,MTT,,76 µg/mL
Cc1ccc(CNC(=O)Cn2cc(CSc3nc4ccccc4[nH]3)nn2)cc1,"cell viability, MTT",,4.11 µg/mL
CCc1c(C)c2ccc(OCC(=O)NN=Cc3ccc([N+](=O)[O-])cc3)cc2oc1=O,MTT,,9.66 µg/mL
N#Cc1cc(F)c(-n2c(=O)cc(C(F)(F)F)[nH]c2=O)cc1Oc1c(F)cccc1F,,,~30 µM
CCNC(=S)NNC(=O)COc1ccc2c(C)c(CC)c(=O)oc2c1C,MTT,,125 µg/mL
C[C@@H]1CC[C@@H]([C@](C)(O)Cn2cnc3ccccc32)[C@H](OCc2ccccc2)C1,"cell growth, inhibitor, MTT",72 h,16.7 µM
C#CCCCC[C@H](C)C[C@@H](C)C(=O)O,"cell growth, sulforhodamine B",,141 µM and 149 µM and 204 µM
COc1ccc(CNC[C@](O)(COCc2ccc(F)cc2)[C@@H]2CC[C@@H](C)C[C@H]2OCc2ccc(F)cc2)cc1,"cell growth, inhibitor, MTT",72 h,1.91 µM
COc1cc(C#N)c(Oc2ccccc2C)cc1-n1c(=O)cc(S(=O)(=O)c2ccccc2)[nH]c1=O,,,~27.5 µM
C[C@@H]1CC[C@@H]([C@](O)(CNCc2cccc3ccccc23)COCc2ccccc2)[C@H](OCc2ccccc2)C1,"cell growth, inhibitor, MTT",72 h,3.57 µM
COc1cc(C#N)c(Oc2ccccc2C)cc1-n1c(=O)cc(S(C)(=O)=O)[nH]c1=O,,,~30 µM
O=C1NC(=NCc2cccs2)S/C1=C\c1ccc2ncccc2c1,MTS,NCI60 panel,> 10 µM
C[C@@H]1CC[C@@H]([C@](O)(CNCc2ccccc2)COCc2ccccc2)[C@H](OCc2ccccc2)C1,"cell growth, inhibitor, MTT",72 h,3.98 µM
COc1cc(C#N)c(Oc2ccccc2C)cc1-n1c(=O)cc(C(F)(F)F)[nH]c1=O,,,~40 µM
O=C1C(=O)N(CCn2ncc3c(=O)[nH]cnc32)c2ccc(Cl)cc21,"cell growth, SRB",72 h,4.59 ± 1.44 µg/mL
C[C@@H]1CC[C@@H]([C@](C)(O)CNCc2ccccc2)[C@H](OCc2ccccc2)C1,"cell growth, inhibitor, MTT",72 h,3.42 µM
C=CCOc1ccc2c(C)c(CC)c(=O)oc2c1C,MTT,,156 µg/mL
COc1ccc2c(c1)C(=O)C(=O)N2CCn1ncc2c(=O)[nH]cnc21,"cell growth, SRB",72 h,16.4 ± 4.57 µg/mL

# Some of these lines once more:
Compound,assay,conditions,IC50
O=C1C(=O)N(CCn2ncc3c(=O)[nH]cnc32)c2ccc(F)cc21,"cell growth, SRB",72 h,15.4 ± 1.81 µg/mL
CC[C@@]1([C@@H]2O[C@@H]([C@H]3O[C@@](O)(CO)[C@H](C)C[C@@H]3C)C[C@@H]2C)CC[C@H]([C@]2(C)CC[C@]3(C[C@H](O)[C@@H](C)[C@@H]([C@@H](C)[C@@H](OC)[C@H](C)C(=O)O)O3)O2)O1,"cell viability, MTT","72 h, 3D mini-ring",0.65 ± 0.459 µM
COc1cc(C#N)c(Oc2ccccc2C)cc1-n1c(=O)cc(S(C)(=O)=O)[nH]c1=O,,,~30 µM
COc1ccc(COC[C@@](O)(CNCc2ccccc2)[C@@H]2CC[C@@H](C)C[C@H]2OCc2ccc(OC)cc2)cc1,"cell growth, inhibitor, MTT",72 h,2.19 µM
N#Cc1cc(F)c(-n2c(=O)cc(C(F)(F)F)[nH]c2=O)cc1Oc1c(F)cccc1F,,,~30 µM
CC(=O)[C@@H]1CCCN1C(=O)[C@@H]1CCCN1C(=O)OC(C)(C)C,"cell growth, sulforhodamine B",,1.95 µM and 2.18 µM and 2.34 µM
